Results from different studies.
A part holds a random share of what one study measured.

Set 1
Target: RING finger protein unkempt homolog, zinc fingers 1-6, GST-SBP tag (UNK, Homo sapiens, UniProt Q9C0B0, residues 30-357)
Sequence of UniProt Q9C0B0 (30-357, looked up): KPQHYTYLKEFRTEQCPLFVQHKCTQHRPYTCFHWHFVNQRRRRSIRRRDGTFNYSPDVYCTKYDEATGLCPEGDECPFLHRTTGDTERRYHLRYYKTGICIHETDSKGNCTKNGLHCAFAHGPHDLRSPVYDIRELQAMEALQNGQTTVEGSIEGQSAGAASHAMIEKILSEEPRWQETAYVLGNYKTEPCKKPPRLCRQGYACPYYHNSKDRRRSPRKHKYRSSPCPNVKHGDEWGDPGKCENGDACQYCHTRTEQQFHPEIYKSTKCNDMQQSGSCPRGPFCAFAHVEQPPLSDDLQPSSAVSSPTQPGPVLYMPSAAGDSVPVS
Technique: RNA Bind-n-Seq
Form: RNA
Sample: in vitro
Tested at: not given
Notes: RNA with constant flanks, ends assumed
Reference: input RNA pool
Reading: higher = stronger binding
Constant ends, left off below: GGGAGUUCUACAGUCCGACGAUC … CAACAGAGGAUUGAGCAUCA
| Strand | bound/input enrichment [ratio] |
| --- | --- |
| GUGCUAUUAAUAUUAGCUGAAGUAGCAAGCUAAAAGUAGACACUUCAUUUAUCUUUUCCGCCGCAUCCUCUCAACUGUUCCAGAUCCAGUUUUGCAUUUGGUUGUCUGUCUCAGUAGUCU | 0.73 |
| GGACAUCUCCAGUCAGAAAGUGGAGCUGUUCCAAAAAGAAAAGACCCCUUAACACACACCCGUAAUUCACUGCCUCGUUCAAAAACAGUUAUGAAAACUGGAUCUGCAGGCCUUUCAGGC | 0.238 |
| CGGGAGUCCCAGUGCCACAUCCUGGAAGAUCUGCUUGGCUGCCAUUAACUCUUCCUGGAAUUCCGAAGUUUUUGUUAUUUUUACUUUUAUACAGAUUGGUUUUAAGCUCUUGCCUUCUAC | 0.409 |
| GAAUUGUCCCAUUUGCUGUCUUUAGAGGCCACGGCUUCAUUUCUAUGCGUAAAAAGCUCAUUCCGCAAUGUAGUUAUUUCAGUAUUUAUUUCUAUUAUGGAAUCCCUGGGGUUCGGAAUG | 0.856 |
| GAUUCAUUGCCUGCUUUACUGGAAUUCUACAAAAUACACUAUUUGGACACUACAACGUUGACCGAACCAGUUUCCAGAUCCAGGCAGGGUAGUGGAGUGAUUCUCAGGCAGGAGGAGGCG | 0.338 |
| AGCACCCCCGGGAGCGGGGCUCGCAGCCGGGGACCAGCCCUGCAGCGCCCAUCUGGGGGCCCGUUCUUAACUCUUCCUCCACGGAGCCCCAGACGGGUCCCCUCCCUUCUUGAUCCUUUU | 0.115 |
| UAUAAGAACUCUUGCAGUCUUAGAUGUUAUAAAAAUAUAUAUCUGAAUUGUAAGAGUUGUCCGCACAAGUUUUUUUUUUUUUUUUUUUUAAGCACUUGUUUUGGGUACAAGGCAUUUCUG | 1.44 |
| CAUCGACAUUGGUAAUGUGGCCAGCUCUCCUUGGUCCUGUCCUCAGCCGAUGCUUUUUCAACCGGAUUUUUAUGCUUUGUGUACCUCAACCAAGUAUGAAGAGCUGUACUGGUUUUAUAG | 0.153 |

Set 2
Target: Fragile X messenger ribonucleoprotein 1, C-terminal low-complexity region (Fmr1, Mus musculus, UniProt P35922)
Technique: RNA Bind-n-Seq
Form: RNA
Sample: in vitro
Tested at: 200 nM
Notes: whole 134-nt RNA, ends assumed
Added: 150 mM LiCl
Reference: input library
Reading: higher = stronger binding
Library: 7-deaza-guanosine replaces G
Constant ends, left off below: GGGAGUUCUACAGUCCGACGAUC … UGGAAUUCUCGGGUGUCAAGG
| Strand | log2 enrichment |
| --- | --- |
| UUAGGUGGCUCCAGGAUGUAUUUAACGUGCCCUUGGUCAUCCAGAUGACGGAUGACGAGAAGUAUCUGUGGAAGGACCUGACCCUGGACC | -1.54 |
| UCAAGUCCUGUGCUACACAUCGUAUGUACCGAAUCGGAAGGGGAAGGGGAAGGGGAAAGUAUUAUGUUACGCCGUUCGGAUCUGCACUUC | -0.0796 |
| CCUCAAGUCCUGUGCUACACAUCGUAUGUACCGAAUCGGAGGAAAGGUUUGGAAAGUAUUAUGUUACGCCGUUCGGAUCUGCACUUCCAG | -1.3 |
| CUCAAGUCCUGUGCUACACAUCGUAUGUACCGAAUCGGAGGAAAAAAAGGUGGAAAGUAUUAUGUUACGCCGUUCGGAUCUGCACUUCCA | -1.82 |
| CUCAAGUCCUGUGCUACACAUCGUAUGUACCGAAUCGGCCCGGCCCGGCCCGGGAAAGUAUUAUGUUACGCCGUUCGGAUCUGCACUUCC | 0.479 |
| UAUGCCACGCCCUUUGAGGACUCGAAGAUCAUGGUCUCUGACUUUGGACUCUCCAAAAUCCAGGCUGGGAACAUGCUAGGCACCGCCUGU | -0.24 |
| UCCUGUGCUACACAUCGUAUGUACCGAAUCGGGUUUUUUGGGUUUUUUGGGGUUUUUUGGAAAGUAUUAUGUUACGCCGUUCGGAUCUGC | 0.14 |
| UCCUGUGCUACACAUCGUAUGUACCGAAUCGGGAAAAAAGGGAAAAAAGGGGAAAAAAGGAAAGUAUUAUGUUACGCCGUUCGGAUCUGC | -0.684 |

Set 3
Target: Phosphate system positive regulatory protein PHO4, full length, GST-tagged (PHO4, Saccharomyces cerevisiae, UniProt P07270, residues 1-312)
Technique: competition protein-binding microarray
Form: double-stranded DNA, one strand shown
Sample: in vitro
Tested at: 2 µM
Notes: whole 60-bp probe, lowest competitor level
Added: Cbf1 competitor, 0.05 µM
Reading: higher = stronger binding
Constant ends, left off below: … GTCTTGATTCGCTTGACGCTGCTG
Residues (chain): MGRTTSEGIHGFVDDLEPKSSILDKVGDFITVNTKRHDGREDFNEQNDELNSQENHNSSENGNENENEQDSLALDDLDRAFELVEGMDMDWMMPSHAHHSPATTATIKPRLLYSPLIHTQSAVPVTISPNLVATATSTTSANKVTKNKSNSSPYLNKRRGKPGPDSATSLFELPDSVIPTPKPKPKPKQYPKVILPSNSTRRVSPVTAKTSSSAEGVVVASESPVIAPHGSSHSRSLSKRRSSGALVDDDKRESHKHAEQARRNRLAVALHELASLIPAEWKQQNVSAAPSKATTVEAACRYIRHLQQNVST
| Strand | fluorescence intensity [a.u.] |
| --- | --- |
| CAATTGTTGCTCTGGCACGTGAGATATATGGTAAGA | 15600 |
| ACATACGCATATTTGCACGTACAAGATAAAAAAAGC | 6980 |
| CTTCTGTAAATTTGAGAGGTGGGTGGACGCGCCCCG | 3980 |
| CCAGAAAGCCGCTATCACGTGATGGTCAATTTCTTT | 14400 |
| CTTCTGTAAATTTGCGAGGTGGGTGGACGCGCCCCG | 3840 |
| AAATTACTAAGTTGAGCGGTGGGTGACGCCGTATGA | 3550 |
| TCTCGAATAGACGGCCACGTGATGGCTAACATTAAT | 18000 |
| CCTCTTTTTCACCCGATTATTTTCATTTATTAGTAA | 4490 |
| TGAAAAGTGTGCTGGCACGGGATCGTTACTAATCCA | 10400 |
| TGTTAAGTTCAACAACATGTGAAATTCTTAGCTCCG | 6010 |

Other studies, line by line
| Molecule | target | assay | test system | conditions | scale | measurement | result |
| --- | --- | --- | --- | --- | --- | --- | --- |
| PhoQ, residues 284 288 289 292 302 303 SLANKL | PhoP, residues 12 14 15 18 19 LHSVQ (Escherichia coli, UniProt P23836) | Sort-seq, refers to: YFP reporter | E. coli | PhoQ-PhoP variant library, added: 10 µM Mg2+ | reference: high Mg2+ state, higher = stronger signaling | fold induction | 6.85 |

Some of these lines once more (set 2):
| Strand | log2 enrichment |
| --- | --- |
| UUAGGUGGCUCCAGGAUGUAUUUAACGUGCCCUUGGUCAUCCAGAUGACGGAUGACGAGAAGUAUCUGUGGAAGGACCUGACCCUGGACC | -1.54 |
| UCAAGUCCUGUGCUACACAUCGUAUGUACCGAAUCGGAAGGGGAAGGGGAAGGGGAAAGUAUUAUGUUACGCCGUUCGGAUCUGCACUUC | -0.0796 |
| CCUCAAGUCCUGUGCUACACAUCGUAUGUACCGAAUCGGAGGAAAGGUUUGGAAAGUAUUAUGUUACGCCGUUCGGAUCUGCACUUCCAG | -1.3 |
| CUCAAGUCCUGUGCUACACAUCGUAUGUACCGAAUCGGAGGAAAAAAAGGUGGAAAGUAUUAUGUUACGCCGUUCGGAUCUGCACUUCCA | -1.82 |
